# Experimental data pooled from the literature.
# Parts stem from different laboratories: compare values within a part only.

# Series 1
# Target: Phosphate system positive regulatory protein PHO4, full length, GST-tagged (PHO4, Saccharomyces cerevisiae, UniProt P07270, residues 1-312)
# Technique: competition protein-binding microarray
# Form: double-stranded DNA, one strand shown
# Medium: in vitro
# Tested at: 2 µM
# Notes: whole 60-bp probe, lowest competitor level
# With: Cbf1 competitor, 0.05 µM
# Reading: higher = stronger binding
# All sequences stand within: … GTCTTGATTCGCTTGACGCTGCTG
# Construct (chain): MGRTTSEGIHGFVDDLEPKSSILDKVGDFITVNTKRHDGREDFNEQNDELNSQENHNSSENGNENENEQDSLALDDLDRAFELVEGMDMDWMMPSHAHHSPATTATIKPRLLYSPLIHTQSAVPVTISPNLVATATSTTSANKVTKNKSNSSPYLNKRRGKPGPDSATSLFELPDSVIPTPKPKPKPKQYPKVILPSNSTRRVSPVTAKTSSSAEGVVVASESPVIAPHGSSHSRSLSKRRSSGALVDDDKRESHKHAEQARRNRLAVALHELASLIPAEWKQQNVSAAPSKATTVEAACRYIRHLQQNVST
Oligonucleotide,fluorescence intensity
CTTCTGTAAATTTGGCACGTGTTTTGACGCGCCCCG,17800 a.u.
AAAGTAACCCACTTTAACGTGACGGAACCTGAGCTG,4960 a.u.
CGGGGTTAAGTTTGGTTTGTGGGTGGCTTGCAGCAG,4360 a.u.
TCGCCTTGTACTTAGCACGTTCTGAGGCATCGCCTA,11700 a.u.
TCTTAGCAGTGAGGACACGGGAGTTGCAGATCAATC,6300 a.u.
GACATCTTCAGTACCCATGTGTAATTTGGCGAATTT,7730 a.u.
CTCTAAATCCCGAGTCACGCATACTTTGGCAGAAAG,7340 a.u.
TGCAAACCTGCAATACTCGTGATGGATATTTAATTA,8150 a.u.
TAGTCCTACAAAACCGGCGTGGGTACATAGATTTTC,6330 a.u.
AAAGCGGTAATTTGGCATGTGGGTGCAGATATCTAT,11500 a.u.
CCCATTTGGTTCTTGCGCGTGCTAATTCCGAGAGGC,11400 a.u.
CAGTTTTCCGCAAAGCACGTTTAACTGGGCAGGGAT,10500 a.u.
GGGCACAAGGAAAAACACGTGACGAATTTCTTTTTT,14800 a.u.
CATACCCAACCTTGAGCAGTGGGTGAAGATATTTGT,4310 a.u.
CTGGTAGCCCTATCGCACGTGCCGATCTGATCAAGG,19900 a.u.
CATCATTTGCCACTCCACATGACAATGTAAAAGCCA,7490 a.u.
CATACCCAACCTTGGTTTGTGGGTGAAGATATTTGT,3740 a.u.
GAATTCTGTGCACTTGCCGTGATGGTGTTCGTTACA,3710 a.u.
CGTCCTAGTGATTGTTTGGTGGGTGCCATGAGGAAG,7920 a.u.
TTAGCGTCAAGTACAAATGTGACGAAAATTTGAGGT,4230 a.u.
CAAAAATTAGAAATCAACGTGACGGTCTAGGGCTAC,10400 a.u.

# Series 2
# Target: Sal-like protein 4, full length isoform B (SALL4, Homo sapiens, UniProt Q9UJQ4-2, residues 1-616)
# Technique: universal PBM
# Form: double-stranded DNA, one strand shown
# Medium: in vitro
# Tested at: not given
# Notes: 8-mer, flanks averaged, mean of replicates
# Reading: higher = stronger binding
# Residues (chain): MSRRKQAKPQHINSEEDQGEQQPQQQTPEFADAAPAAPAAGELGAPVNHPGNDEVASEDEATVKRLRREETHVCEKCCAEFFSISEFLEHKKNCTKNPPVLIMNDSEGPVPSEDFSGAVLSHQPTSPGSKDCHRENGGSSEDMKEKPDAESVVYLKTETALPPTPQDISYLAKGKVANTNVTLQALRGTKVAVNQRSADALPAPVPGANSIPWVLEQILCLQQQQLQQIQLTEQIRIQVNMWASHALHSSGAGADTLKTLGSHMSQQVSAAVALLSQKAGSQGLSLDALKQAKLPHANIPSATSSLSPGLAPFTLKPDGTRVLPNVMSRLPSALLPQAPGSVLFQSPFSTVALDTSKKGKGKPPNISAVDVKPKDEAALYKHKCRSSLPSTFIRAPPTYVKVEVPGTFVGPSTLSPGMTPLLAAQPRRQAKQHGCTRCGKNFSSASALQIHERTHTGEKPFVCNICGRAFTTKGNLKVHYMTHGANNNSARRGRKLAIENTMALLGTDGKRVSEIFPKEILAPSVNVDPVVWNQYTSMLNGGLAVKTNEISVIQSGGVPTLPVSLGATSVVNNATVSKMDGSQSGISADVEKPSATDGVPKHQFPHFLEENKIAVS
Oligonucleotide,E-score
AGCCCAAA,0.0897
GATAAGAC,0.126
CTCACGCA,-0.0474
GCCGGGGA,-0.301
CCAAACGC,-0.205
AATTGGTG,0.133
ATTGGACC,-0.118
ATCAAGCA,0.0485
ACCGAAGC,-0.216
ACGCAACC,-0.109
AGCTATCG,-0.0149
GTTAACAA,0.124
ACCGTACC,-0.252
ACGCAGAT,-0.137
AGAGCTTG,-0.17
CAGCTGGC,-0.263
AATGCCGA,-0.0577
ACCGCGGG,-0.368
CGGCATCA,-0.144
GATTCAGC,-0.26
CCGTTAAC,-0.0834
CGAAGTAA,0.0624
CAAGCATC,-0.0467
GTCTCAGA,-0.143
CACTCAAG,-0.171

# Series 3
# Target: PABPC1L2, full length, GST fusion (mouse, UniProt A0ABA7IW68)
# Technique: RNAcompete
# Form: RNA
# Medium: in vitro
# Tested at: 20 nM
# Notes: 7-mer, probes averaged, single round
# Relative to: mean of 7-mers
# Reading: higher = stronger binding
# Residues (chain): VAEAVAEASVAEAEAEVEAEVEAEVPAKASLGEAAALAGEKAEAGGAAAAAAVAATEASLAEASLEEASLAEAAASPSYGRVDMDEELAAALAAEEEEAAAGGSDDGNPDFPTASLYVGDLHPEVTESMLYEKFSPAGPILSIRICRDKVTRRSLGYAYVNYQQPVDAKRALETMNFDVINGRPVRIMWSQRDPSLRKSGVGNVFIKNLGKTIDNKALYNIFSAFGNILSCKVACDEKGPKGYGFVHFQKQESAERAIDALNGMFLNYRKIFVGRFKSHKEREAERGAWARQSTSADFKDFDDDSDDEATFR
Oligonucleotide,7-mer Z-score
GGUCAAA,0.258
CACGGGU,0.138
CUCUACG,-0.264
CCGGCUC,-0.333
CAAUUCC,-0.213
UCAUCGC,-0.315
GGAUCUG,-0.0935
AUUGGAU,0.0116
CAGCCGG,-0.271
GAGGGCG,0.258
CCAGAGC,-0.175
CGUAUCU,-0.396
AUUAGUC,-0.267
CUAGCGU,-0.3
UAGAAGA,0.262
CUGUCCC,-0.273
CACAUGA,-0.162
AACGGGU,0.307
CCUUUAU,-0.22
GGUCGUU,-0.456
UCGCCGA,-0.402
UUAAACA,1.14

# Series 4
# Target: RNA binding protein fox-1 homolog 2, RRM domain, GST-SBP tag (RBFOX2, Homo sapiens, UniProt O43251-10, residues 100-194)
# Technique: RNA Bind-n-Seq
# Form: RNA
# Medium: in vitro
# Tested at: 365 nM
# Notes: natural RNA segment, single round, ends assumed
# Relative to: no-protein control
# Reading: higher = stronger binding
# All sequences stand within: GGGAGUUCUACAGUCCGACGAUC … UGGAAUUCUCGGGUGCCAA
# Residues (chain): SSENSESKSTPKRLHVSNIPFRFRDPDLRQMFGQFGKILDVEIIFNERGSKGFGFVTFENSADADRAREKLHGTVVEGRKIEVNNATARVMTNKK
Oligonucleotide,RBNS enrichment (R)
ACUAACUCAUCUUUGCAAAAGGAACUGCUCCCUCGGCGUGCCCCAGCUGGGGCCUCUGAAGGGAUUCCUCACUGUGGGCAGCUGCCCUGAGCUUCAGGCAGCAGUGUUUA,0.287
AGUGUUUUGAGUCAACUGAAAAAAAGCAUGACUUUUGGAAUCUCUGAAUGCCUUGGUUCUCAGUAUUAUCACUCUAUUGAAUUUUUUUUUCUUAUUAAAGUAUGUAGUUU,4.75
AGCUUCCUCCGCAUCCUCCCAUCUUGCCCCAUUUCUGCCACGUCAGACACUUCCUGAGAGUCUCACCUUCAAAAUGACACCGCUGCCCAUCCAUUGCUCAAUGGUACAGA,0.93
CCAUCGAUGUACACAUUUGAUAUUUGUGCAGUAAAUAGACUGUACCUAUAAAAAAUUUUAUUGAUGUUUAUGGUCAUGUUAGCUAUCAGAGAGCUAUUGGAGUGAGAGCU,0.586
GUGAACAGCAUUUUCGUUCCUGACCCAAUGAGAAAGAGGCACUCAUCUCUGACCCAAUGAGAAAGAGACACUCAUCUCUGGGAAAUGUGCCUCUCUGGAAUCUCCAUCCC,0.519
ACACUACAGGAAUAUGUAAUUGUUUCUUGCAGAAGUCUUAAGUCCACCCAAUAAUAAGAUCAGAAGAUAUUUAAUUCUUUUCACAUUUUAUUUAUUUAAAGUGGAAAUUC,0.391
GUGCCUAGAAUGGGCUCUUUAUCCAGUAGACACCACUGUACUUUUUGAUACGAGGGCAGUCUUAACUUGUGUUAAGGCCUGUGUGUAGCAUUGAAGGGAGGAGUUGCUUA,0.247
UCCUGAGAGUGUGAGGUCAUCAGAACCCACCUGCCACUGAGGCCAGUGAAGGUCUCAGACCAAGGGGUACAAGAACUCCAGCACACCCAGAGAUGGUCAUGCACAGCCUC,0.261
AAGUGUAUUUAAUGUCUGUGUCAUGUAUAUGCCAAAAUUUUAAUCCCCUAUAAAUAAAACAUGUGUCACAAAACUGUAGGCUGAAUUUCUUAACCAAUUAGACUAGCACA,1.12
CGGGGCCAUCGGCUCAGCUCUUGGCUGCCUGGUCAGCCGGUCAGUGUUUUGCGGGGAGAGGUGGCGGGGUGGGAACCGCGUCAUUCCAAAGUGGAUCUGCGGUGAAGCCA,0.333
GUUAAUUUUCUUUAGAUGUGUAAAACUGUUCAUUGUAGUGUAAAUGUCAGGGUCUGUUCUAGUCUAUGUCAAGCAAUAACUGUCAGUGCAUAAAUCGAUUAGUCUGCUGU,0.387
CGAUGGGCCAGGGGGCCUUACCAUUUCCCUGGGCUCUACUGCCUAGACAAACCCAGCCCGGACUCCAGCACACAAUGUUUGCACCCGUUCCCUGUCUGUCACCCCACAUG,0.603

# Repeated from above (series 4):
Oligonucleotide,RBNS enrichment (R)
GUGAACAGCAUUUUCGUUCCUGACCCAAUGAGAAAGAGGCACUCAUCUCUGACCCAAUGAGAAAGAGACACUCAUCUCUGGGAAAUGUGCCUCUCUGGAAUCUCCAUCCC,0.519
UCCUGAGAGUGUGAGGUCAUCAGAACCCACCUGCCACUGAGGCCAGUGAAGGUCUCAGACCAAGGGGUACAAGAACUCCAGCACACCCAGAGAUGGUCAUGCACAGCCUC,0.261
AGUGUUUUGAGUCAACUGAAAAAAAGCAUGACUUUUGGAAUCUCUGAAUGCCUUGGUUCUCAGUAUUAUCACUCUAUUGAAUUUUUUUUUCUUAUUAAAGUAUGUAGUUU,4.75
AAGUGUAUUUAAUGUCUGUGUCAUGUAUAUGCCAAAAUUUUAAUCCCCUAUAAAUAAAACAUGUGUCACAAAACUGUAGGCUGAAUUUCUUAACCAAUUAGACUAGCACA,1.12
CCAUCGAUGUACACAUUUGAUAUUUGUGCAGUAAAUAGACUGUACCUAUAAAAAAUUUUAUUGAUGUUUAUGGUCAUGUUAGCUAUCAGAGAGCUAUUGGAGUGAGAGCU,0.586
GUUAAUUUUCUUUAGAUGUGUAAAACUGUUCAUUGUAGUGUAAAUGUCAGGGUCUGUUCUAGUCUAUGUCAAGCAAUAACUGUCAGUGCAUAAAUCGAUUAGUCUGCUGU,0.387
ACUAACUCAUCUUUGCAAAAGGAACUGCUCCCUCGGCGUGCCCCAGCUGGGGCCUCUGAAGGGAUUCCUCACUGUGGGCAGCUGCCCUGAGCUUCAGGCAGCAGUGUUUA,0.287
GUGCCUAGAAUGGGCUCUUUAUCCAGUAGACACCACUGUACUUUUUGAUACGAGGGCAGUCUUAACUUGUGUUAAGGCCUGUGUGUAGCAUUGAAGGGAGGAGUUGCUUA,0.247
ACACUACAGGAAUAUGUAAUUGUUUCUUGCAGAAGUCUUAAGUCCACCCAAUAAUAAGAUCAGAAGAUAUUUAAUUCUUUUCACAUUUUAUUUAUUUAAAGUGGAAAUUC,0.391
